Results gathered from unrelated publications.
Parts stem from different laboratories: compare values within a part only.

Block 1
Target: RNA binding protein fox-1 homolog 2, RRM domain, GST-SBP tag (RBFOX2, Homo sapiens, UniProt O43251-10, residues 100-194)
Method: RNA Bind-n-Seq
Form: RNA
Medium: in vitro
Tested at: 365 nM
Notes: natural RNA segment, single round, ends assumed
Baseline: no-protein control
Direction: higher = stronger binding
Construct (chain): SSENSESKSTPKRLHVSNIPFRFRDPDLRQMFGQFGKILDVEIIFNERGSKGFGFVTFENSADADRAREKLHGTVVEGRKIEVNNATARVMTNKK
`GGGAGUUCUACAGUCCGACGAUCUUCAAGAACCAGACAACAGGAUGCCUUAGAAGCUGGCUGGGUUUUGGGUCAGGGGCUCAGUAUGAGAAGAAGAAAUAUGAACAGCAAAUAAAACAUUUUUGUAUAAGCUCUGGAAUUCUCGGGUGCCAA` — result for “RBNS enrichment (R)”: 2.68.
Under “RBNS enrichment (R)”, `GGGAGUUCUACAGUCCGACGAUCAGGACAUAUUCACAGUGAACAUAACUGUAACAUAUAUGAAAGGCUUCUGGGACUUGAAAUCAAAUGUUUGGGAAUGGUGCCCUUGGAGGCAACCUCCCAUUUUAGAUGUUUGGAAUUCUCGGGUGCCAA` is recorded as 0.444.
Under “RBNS enrichment (R)”, `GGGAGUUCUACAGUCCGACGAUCAGAAAGAUCUGGAAGAAGGCCUGGCAGUGAAUCCAAGGACUCUGGGCCCCCAACAAUAGAUGGUAGCGUAAGUCUGGAGCAGCGGUGUUUCACCACCAAAUGCCUUUCCAUGGAAUUCUCGGGUGCCAA` is recorded as 0.297.
Under “RBNS enrichment (R)”, `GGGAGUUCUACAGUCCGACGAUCGUAUUUUAGUUGCAGCCUAUUUUUAAUAAACUUUGUAUCUAUUUAAGUGUAUUUGCUAUUGUUUUCAAAGUGCUGACAAAGUUUAUAUUUGUAAUGCCAGCAUUCCUCUUUGGAAUUCUCGGGUGCCAA` is recorded as 0.93.
`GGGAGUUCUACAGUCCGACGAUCUAUGUUGCUUUGUAAUUAUUUUCUAGCACUCUGUGUUACAGUUUCAUAUUUGUAUUUAUUUCCAAAAUUAAAUUGUAAGCUCCUUGAGGGCAGGAAUAAUAACUUUUACAUGGAAUUCUCGGGUGCCAA`: “RBNS enrichment (R)” 0.4.
`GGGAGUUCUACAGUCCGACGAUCCCUGUUACCAACUGCGCAGACAUCACACAAUCCGUGCCAUGUGAUUGAGAAAUGGAAAUGCCACCUCAACUUAAAUAAUCACAGUUGGUCAUUUAUGCCCACUUUAAAAUUGGAAUUCUCGGGUGCCAA` — result for “RBNS enrichment (R)”: 0.682.
`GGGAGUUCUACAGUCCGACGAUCGGAGAAGAGGGACCCCGGGGUUUCUAAUUUCAACCCCAAAUGACAUGUUUAUUUGCACCUGAUGCUCAGGAGCCAGAUGUGGACCCUGCAGAGCCAGGCUUGUACCACAGUGGAAUUCUCGGGUGCCAA`: “RBNS enrichment (R)” 0.919.
For `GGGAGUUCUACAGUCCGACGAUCUUUCUUCAAGAGGAAACAUAUUCUGUCCGAAGGAAACUGUAGUGCGAGCCCAGAGUGUUCAAAGGCGCCAAGGUCCUGGCAGGUUACAAAGGGUUUUGUGUUGGCAUGAGUGGAAUUCUCGGGUGCCAA`, “RBNS enrichment (R)” read 1.3.

Block 2
Target: Centromere-binding protein 1, full length, His-tagged (CBF1, Saccharomyces cerevisiae, UniProt P17106, residues 1-351)
Chain of UniProt P17106 (whole entry, looked up): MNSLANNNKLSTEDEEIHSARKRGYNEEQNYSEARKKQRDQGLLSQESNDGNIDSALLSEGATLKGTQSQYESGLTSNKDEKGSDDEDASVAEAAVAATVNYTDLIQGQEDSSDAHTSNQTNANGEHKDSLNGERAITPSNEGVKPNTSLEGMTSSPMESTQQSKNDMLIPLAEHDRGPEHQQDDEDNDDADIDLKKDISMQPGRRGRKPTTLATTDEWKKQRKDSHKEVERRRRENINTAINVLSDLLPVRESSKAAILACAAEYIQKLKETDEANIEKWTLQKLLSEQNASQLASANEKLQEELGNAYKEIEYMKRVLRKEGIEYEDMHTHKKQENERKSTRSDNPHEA
Method: competition protein-binding microarray
Form: double-stranded DNA, one strand shown
Medium: in vitro
Tested at: 2 µM
Notes: whole 60-bp probe, lowest competitor level
Together with: Pho4 competitor, 0.05 µM
Direction: higher = stronger binding
`CGGGAACGCAAATGCATCGTGGTGAAATGATAAATCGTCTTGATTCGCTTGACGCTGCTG` gave a fluorescence intensity of 84.4 a.u.
With `TAGCAACGGAGAAAGCACGCTTGTAGAACCAACCTTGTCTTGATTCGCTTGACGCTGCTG` the fluorescence intensity was 80.6 a.u.
The fluorescence intensity of `AAAGCGGTAATTTGGCAGGTGGGTGCAGATATCTATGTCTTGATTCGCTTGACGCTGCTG` is reported as 90.7 a.u.
`GATGATGTGCTTGTCATCGTGGGTAACTTCACCAGCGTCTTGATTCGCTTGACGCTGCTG` gave a fluorescence intensity of 74.5 a.u.
The fluorescence intensity of `CAACGGCGCCTCGGCCACGTTGAGTGAACCTTTGGCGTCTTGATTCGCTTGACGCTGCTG` is reported as 77.3 a.u.
`GCCATTCTCCATTCACACGTCAATCAGTCGTATTGGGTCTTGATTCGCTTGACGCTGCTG` gave a fluorescence intensity of 89.3 a.u.
`GTCTTGTCTCATTAACACGTGTTTTTCCCCACTTCAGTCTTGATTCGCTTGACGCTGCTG` has a fluorescence intensity of 1720 a.u.
`ATTGGGCCATCAGCAGACGTGGCCTTGGCTGGACGCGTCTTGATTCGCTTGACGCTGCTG` gave a fluorescence intensity of 52.5 a.u.
With `TTGAACCTTGGTCTTCACGTGGTGAAGTATTGGTACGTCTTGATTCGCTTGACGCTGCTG` the fluorescence intensity was 957 a.u.
`AATGTGGGAATGTCGCACACGCTAATGTGGAATTGGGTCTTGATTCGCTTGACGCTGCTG` has a fluorescence intensity of 84.6 a.u.
With `CCATGGACAATTTCACACGTGAAAATTGGTTACCATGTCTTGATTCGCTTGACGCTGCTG` the fluorescence intensity was 616 a.u.
The fluorescence intensity of `TCTAATGTTATTCGTCACGTCGATCTGACATATATCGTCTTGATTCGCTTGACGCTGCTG` is reported as 162 a.u.
With `GAAAAGCTTATTTTTTTCGTGCAAACTCCGTTCTTAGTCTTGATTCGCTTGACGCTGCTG` the fluorescence intensity was 73 a.u.
The fluorescence intensity of `AGACATAGGGAGATGCATGTGTAGCGGATCCGCCTGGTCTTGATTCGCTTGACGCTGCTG` is reported as 71.7 a.u.
With `CTTTTCCGGTTGAGACTTGAGCAAGTGCTTCAGTTTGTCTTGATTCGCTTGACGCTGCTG` the fluorescence intensity was 72.6 a.u.
The fluorescence intensity of `TGTCCCTCTATTAACACCGTGATGGTCAAATCAAACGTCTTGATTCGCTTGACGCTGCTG` is reported as 126 a.u.
With `ATGGCTTTGGCTTTCCACATGGACATCAAGGTCTACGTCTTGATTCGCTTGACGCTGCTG` the fluorescence intensity was 82.8 a.u.
`CTAACGAAGGTTTGGAGAGTGGGTGACAAGCCAAGTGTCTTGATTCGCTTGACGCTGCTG` has a fluorescence intensity of 56.9 a.u.
The fluorescence intensity of `AAATTACTAAGTTGTCACCGCACTTACCCCGTATGAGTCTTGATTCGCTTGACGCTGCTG` is reported as 75.7 a.u.

Block 3
Target: Ras GTPase-activating protein-binding protein 1, full length (G3BP1, Homo sapiens, UniProt Q13283)
Chain of UniProt Q13283 (whole entry, looked up): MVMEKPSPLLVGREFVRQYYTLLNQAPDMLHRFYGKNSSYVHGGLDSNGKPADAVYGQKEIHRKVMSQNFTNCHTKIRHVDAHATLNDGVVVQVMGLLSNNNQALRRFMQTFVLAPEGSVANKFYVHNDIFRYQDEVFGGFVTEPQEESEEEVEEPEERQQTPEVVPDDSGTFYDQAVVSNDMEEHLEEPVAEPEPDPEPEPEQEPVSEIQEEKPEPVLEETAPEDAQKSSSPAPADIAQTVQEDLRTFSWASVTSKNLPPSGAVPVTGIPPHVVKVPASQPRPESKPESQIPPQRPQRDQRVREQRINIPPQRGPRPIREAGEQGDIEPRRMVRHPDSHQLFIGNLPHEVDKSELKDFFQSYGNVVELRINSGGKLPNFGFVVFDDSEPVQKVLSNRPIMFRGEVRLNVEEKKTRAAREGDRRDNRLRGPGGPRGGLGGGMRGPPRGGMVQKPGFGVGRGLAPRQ
Method: RNA Bind-n-Seq
Form: RNA
Medium: in vitro
Tested at: 200 nM
Notes: whole 134-nt RNA, ends assumed
Together with: 150 mM LiCl
Baseline: input library
Direction: higher = stronger binding
All molecules: 7-deaza-guanosine replaces G
For `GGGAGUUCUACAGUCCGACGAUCUCAAGUCCUGUGCUACACAUCGUAUGUACCGAAUCGGUUGGGGUUGGGGUUGGGAAAGUAUUAUGUUACGCCGUUCGGAUCUGCACUUCCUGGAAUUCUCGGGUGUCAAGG`, the log2 enrichment was -0.794.
`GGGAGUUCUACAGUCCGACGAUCUCAAGUCCUGUGCUACACAUCGUAUGUACCGAAUCGGAAAGGGGAAAGGGAAAGGAAAGUAUUAUGUUACGCCGUUCGGAUCUGCACUUCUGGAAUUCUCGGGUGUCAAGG` gave a log2 enrichment of -0.505.
`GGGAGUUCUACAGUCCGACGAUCAAGUCCUGUGCUACACAUCGUAUGUACCGAAUCGGGUGGGAAAAAAAGGGAAAGGGAAAGUAUUAUGUUACGCCGUUCGGAUCUGCACUUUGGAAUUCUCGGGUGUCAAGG` gave a log2 enrichment of 0.28.
For `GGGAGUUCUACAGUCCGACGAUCUCCUGUGCUACACAUCGUAUGUACCGAAUCGGCCCCCCGGGGCCCCCCGGGGCCCCCCGGAAAGUAUUAUGUUACGCCGUUCGGAUCUGCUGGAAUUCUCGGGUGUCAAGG`, the log2 enrichment was -2.25.
The log2 enrichment of `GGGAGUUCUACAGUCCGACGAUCGCAGGAAGUAAAAACAAAUGGAAAUGCUUCAAAUAGUGGCAGGGGUGGGGGUUGCUAAGGAAAGGGUGGGAUGGGAGUGGGUAAAGAGUUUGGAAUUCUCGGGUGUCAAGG` is reported as -0.176.
With `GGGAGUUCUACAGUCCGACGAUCUGGGAGGUGGAUUUUGUUUCUUUUUUUAGCUCAUUUCCAGGGGUGGGAAUUUUUUUUUAAUAUGUGUCAUGAAUAAAGUUGUUUUUGAAAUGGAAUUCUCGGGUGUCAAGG` the log2 enrichment was 0.394.
The log2 enrichment of `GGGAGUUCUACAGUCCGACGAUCUCCUGUGCUACACAUCGUAUGUACCGAAUCGGGUUUUUUGGGUUUUUUGGUUUUUUGGGAAAGUAUUAUGUUACGCCGUUCGGAUCUGCAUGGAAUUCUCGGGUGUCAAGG` is reported as 0.368.
With `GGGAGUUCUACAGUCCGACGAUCUCGGAUGGCUUCGCAUUUCCCCAAUACCCCAUUAAACCGUAUCAUCUGAAGAGGAUCCACAGAGCUGUCUUACAUGGUAAUCUAGAGAAAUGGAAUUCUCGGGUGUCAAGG` the log2 enrichment was 0.96.

Block 4
Target: Sal-like protein 4, full length isoform A (SALL4, Homo sapiens, UniProt Q9UJQ4, residues 1-1053)
Chain of UniProt Q9UJQ4 (whole entry, looked up): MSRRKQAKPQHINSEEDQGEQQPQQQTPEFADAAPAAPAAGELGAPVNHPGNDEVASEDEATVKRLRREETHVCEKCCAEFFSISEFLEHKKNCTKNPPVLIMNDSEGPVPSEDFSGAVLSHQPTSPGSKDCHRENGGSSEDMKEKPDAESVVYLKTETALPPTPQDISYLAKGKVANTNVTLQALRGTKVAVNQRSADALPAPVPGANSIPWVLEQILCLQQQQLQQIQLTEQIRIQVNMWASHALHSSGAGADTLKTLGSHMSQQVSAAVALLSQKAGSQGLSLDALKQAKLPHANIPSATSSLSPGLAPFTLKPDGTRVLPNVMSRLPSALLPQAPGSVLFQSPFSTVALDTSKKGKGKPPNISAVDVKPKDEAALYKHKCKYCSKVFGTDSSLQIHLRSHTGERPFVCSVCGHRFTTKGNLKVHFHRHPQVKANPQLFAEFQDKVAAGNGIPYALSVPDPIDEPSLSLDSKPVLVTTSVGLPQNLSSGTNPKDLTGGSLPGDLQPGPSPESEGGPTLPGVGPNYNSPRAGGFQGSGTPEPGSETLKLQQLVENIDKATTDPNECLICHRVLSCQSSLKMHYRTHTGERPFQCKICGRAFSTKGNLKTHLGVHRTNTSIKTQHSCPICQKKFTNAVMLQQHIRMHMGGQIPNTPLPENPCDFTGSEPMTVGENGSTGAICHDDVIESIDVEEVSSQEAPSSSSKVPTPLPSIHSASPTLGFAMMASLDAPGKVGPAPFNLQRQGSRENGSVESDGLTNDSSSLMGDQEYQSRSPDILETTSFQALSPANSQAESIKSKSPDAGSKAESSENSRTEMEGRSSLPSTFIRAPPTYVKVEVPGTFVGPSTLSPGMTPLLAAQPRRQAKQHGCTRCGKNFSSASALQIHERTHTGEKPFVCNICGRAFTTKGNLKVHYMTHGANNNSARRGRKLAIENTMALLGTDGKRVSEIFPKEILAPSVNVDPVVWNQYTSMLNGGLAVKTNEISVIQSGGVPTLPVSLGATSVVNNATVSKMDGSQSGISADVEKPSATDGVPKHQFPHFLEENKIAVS
Method: universal PBM
Form: double-stranded DNA, one strand shown
Medium: in vitro
Tested at: 600 nM
Notes: 8-mer, flanks averaged, mean of replicates
Direction: higher = stronger binding
`GCTATAAA` gave an E-score of 0.292.
With `AGAATGTA` the E-score was 0.272.
For `AAACTTAC`, the E-score was 0.17.
`CTATTCGC` has an E-score of 0.0803.
`ATATCTCC` gave an E-score of 0.189.
`CGGCTGAG` has an E-score of -0.261.
The E-score of `GGTATACA` is reported as 0.0953.
`AGGGCACC` gave an E-score of -0.372.
For `ATGGCCAA`, the E-score was -0.00534.
`GTGGCGGA` has an E-score of -0.291.
`AAAAGCAA` has an E-score of 0.166.
`ATGTATCG` gave an E-score of 0.211.
`CGGACTAG` has an E-score of -0.18.
`CCTATCTC` gave an E-score of -0.0715.
With `TAGCCGCA` the E-score was -0.252.
With `AGGAGTTA` the E-score was 0.15.
With `GTGTTCCA` the E-score was 0.0338.
For `ACTGTGTA`, the E-score was 0.128.
`AGTTGGCG` has an E-score of -0.0525.
`CGCGAATC` has an E-score of -0.113.
The E-score of `CTGTGAAA` is reported as 0.165.
The E-score of `CATTGGAA` is reported as 0.187.
`TCCACACA` has an E-score of -0.0284.

A few entries again (block 4):
`ATGTATCG` gave an E-score of 0.211.
The E-score of `CTGTGAAA` is reported as 0.165.
With `GTGTTCCA` the E-score was 0.0338.
`AAAAGCAA` has an E-score of 0.166.
For `AAACTTAC`, the E-score was 0.17.
`ATATCTCC` gave an E-score of 0.189.
`CGGACTAG` has an E-score of -0.18.
For `ATGGCCAA`, the E-score was -0.00534.
